Published values of several laboratories.
Each numbered part is a random draw from the data of one study; scales do not carry over between parts.
Chain of UniProt P10721 (whole entry, unmodified, looked up): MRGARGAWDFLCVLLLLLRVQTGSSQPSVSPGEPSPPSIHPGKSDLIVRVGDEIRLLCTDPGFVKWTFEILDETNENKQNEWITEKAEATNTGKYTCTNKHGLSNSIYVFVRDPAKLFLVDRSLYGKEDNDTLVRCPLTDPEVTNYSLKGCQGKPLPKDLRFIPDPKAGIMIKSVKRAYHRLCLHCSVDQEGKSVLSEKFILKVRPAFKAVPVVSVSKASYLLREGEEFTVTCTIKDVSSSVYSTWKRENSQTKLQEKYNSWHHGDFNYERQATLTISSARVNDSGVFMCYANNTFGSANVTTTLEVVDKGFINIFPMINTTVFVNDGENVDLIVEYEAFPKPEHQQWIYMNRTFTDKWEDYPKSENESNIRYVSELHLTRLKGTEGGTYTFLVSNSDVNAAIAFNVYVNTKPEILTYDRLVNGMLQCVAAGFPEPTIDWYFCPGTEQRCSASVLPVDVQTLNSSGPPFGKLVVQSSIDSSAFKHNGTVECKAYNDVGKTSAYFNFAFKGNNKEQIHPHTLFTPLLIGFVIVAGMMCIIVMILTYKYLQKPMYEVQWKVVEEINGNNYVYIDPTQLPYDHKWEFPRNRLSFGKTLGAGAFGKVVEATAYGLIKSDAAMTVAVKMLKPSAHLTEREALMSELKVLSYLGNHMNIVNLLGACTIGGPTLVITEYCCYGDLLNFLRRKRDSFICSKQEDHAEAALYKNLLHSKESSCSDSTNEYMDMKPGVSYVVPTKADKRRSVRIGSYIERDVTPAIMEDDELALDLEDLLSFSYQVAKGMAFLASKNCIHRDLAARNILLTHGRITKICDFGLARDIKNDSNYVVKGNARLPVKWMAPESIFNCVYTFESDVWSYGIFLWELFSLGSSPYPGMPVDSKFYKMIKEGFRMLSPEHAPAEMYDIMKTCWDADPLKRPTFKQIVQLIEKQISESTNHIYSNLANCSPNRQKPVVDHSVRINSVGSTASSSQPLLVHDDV
Chain of UniProt P28482 (whole entry, looked up): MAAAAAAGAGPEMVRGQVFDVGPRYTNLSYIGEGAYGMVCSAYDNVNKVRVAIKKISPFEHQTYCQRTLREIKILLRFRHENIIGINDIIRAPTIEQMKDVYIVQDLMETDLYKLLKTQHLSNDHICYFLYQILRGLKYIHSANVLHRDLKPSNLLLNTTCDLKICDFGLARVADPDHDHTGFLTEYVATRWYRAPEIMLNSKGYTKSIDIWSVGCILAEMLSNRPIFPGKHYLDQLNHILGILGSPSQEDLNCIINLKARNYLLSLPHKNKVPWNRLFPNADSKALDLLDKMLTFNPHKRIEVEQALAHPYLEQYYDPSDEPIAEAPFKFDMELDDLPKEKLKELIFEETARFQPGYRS
Chain of UniProt Q9H3Y6 (whole entry, looked up): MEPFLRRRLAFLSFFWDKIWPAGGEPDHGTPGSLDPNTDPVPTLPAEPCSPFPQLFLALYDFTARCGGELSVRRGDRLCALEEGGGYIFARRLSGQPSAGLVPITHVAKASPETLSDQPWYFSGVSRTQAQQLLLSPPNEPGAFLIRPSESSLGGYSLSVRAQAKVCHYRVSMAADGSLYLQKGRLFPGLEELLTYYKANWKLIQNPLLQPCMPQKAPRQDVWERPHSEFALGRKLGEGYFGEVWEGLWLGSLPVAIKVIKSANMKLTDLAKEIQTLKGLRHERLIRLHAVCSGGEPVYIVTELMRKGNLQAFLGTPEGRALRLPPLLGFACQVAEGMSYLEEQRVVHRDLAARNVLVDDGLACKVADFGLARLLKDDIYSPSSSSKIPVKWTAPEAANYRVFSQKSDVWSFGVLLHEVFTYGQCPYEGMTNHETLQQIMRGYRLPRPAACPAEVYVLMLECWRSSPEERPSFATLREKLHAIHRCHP
Chain of UniProt P31751 (whole entry, looked up): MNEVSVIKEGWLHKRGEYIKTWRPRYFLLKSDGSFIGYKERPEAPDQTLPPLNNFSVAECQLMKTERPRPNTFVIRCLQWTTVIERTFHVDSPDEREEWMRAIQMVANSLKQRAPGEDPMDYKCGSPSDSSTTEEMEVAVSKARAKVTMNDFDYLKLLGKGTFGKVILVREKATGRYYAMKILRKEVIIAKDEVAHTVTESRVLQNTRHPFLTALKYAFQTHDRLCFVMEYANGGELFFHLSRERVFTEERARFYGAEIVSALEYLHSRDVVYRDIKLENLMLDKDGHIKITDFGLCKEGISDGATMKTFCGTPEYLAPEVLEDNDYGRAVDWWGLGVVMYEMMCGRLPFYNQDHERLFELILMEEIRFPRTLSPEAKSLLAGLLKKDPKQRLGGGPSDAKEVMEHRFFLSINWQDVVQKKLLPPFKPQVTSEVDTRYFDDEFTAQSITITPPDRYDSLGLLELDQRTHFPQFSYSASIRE
Chain of UniProt Q9UQM7 (whole entry, looked up): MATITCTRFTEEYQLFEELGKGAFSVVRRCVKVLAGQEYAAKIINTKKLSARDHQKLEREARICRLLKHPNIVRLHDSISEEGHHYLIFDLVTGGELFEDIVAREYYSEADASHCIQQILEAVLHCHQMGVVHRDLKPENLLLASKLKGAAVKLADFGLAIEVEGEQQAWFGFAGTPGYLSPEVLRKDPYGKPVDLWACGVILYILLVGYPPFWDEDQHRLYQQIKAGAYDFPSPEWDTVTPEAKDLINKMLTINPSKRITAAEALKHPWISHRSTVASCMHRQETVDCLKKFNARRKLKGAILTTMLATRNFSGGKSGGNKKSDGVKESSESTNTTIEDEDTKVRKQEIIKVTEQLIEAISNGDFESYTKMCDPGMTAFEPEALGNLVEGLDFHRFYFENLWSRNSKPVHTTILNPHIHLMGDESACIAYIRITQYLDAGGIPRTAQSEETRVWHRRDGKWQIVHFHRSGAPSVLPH
Chain of UniProt P08581 (whole entry, looked up): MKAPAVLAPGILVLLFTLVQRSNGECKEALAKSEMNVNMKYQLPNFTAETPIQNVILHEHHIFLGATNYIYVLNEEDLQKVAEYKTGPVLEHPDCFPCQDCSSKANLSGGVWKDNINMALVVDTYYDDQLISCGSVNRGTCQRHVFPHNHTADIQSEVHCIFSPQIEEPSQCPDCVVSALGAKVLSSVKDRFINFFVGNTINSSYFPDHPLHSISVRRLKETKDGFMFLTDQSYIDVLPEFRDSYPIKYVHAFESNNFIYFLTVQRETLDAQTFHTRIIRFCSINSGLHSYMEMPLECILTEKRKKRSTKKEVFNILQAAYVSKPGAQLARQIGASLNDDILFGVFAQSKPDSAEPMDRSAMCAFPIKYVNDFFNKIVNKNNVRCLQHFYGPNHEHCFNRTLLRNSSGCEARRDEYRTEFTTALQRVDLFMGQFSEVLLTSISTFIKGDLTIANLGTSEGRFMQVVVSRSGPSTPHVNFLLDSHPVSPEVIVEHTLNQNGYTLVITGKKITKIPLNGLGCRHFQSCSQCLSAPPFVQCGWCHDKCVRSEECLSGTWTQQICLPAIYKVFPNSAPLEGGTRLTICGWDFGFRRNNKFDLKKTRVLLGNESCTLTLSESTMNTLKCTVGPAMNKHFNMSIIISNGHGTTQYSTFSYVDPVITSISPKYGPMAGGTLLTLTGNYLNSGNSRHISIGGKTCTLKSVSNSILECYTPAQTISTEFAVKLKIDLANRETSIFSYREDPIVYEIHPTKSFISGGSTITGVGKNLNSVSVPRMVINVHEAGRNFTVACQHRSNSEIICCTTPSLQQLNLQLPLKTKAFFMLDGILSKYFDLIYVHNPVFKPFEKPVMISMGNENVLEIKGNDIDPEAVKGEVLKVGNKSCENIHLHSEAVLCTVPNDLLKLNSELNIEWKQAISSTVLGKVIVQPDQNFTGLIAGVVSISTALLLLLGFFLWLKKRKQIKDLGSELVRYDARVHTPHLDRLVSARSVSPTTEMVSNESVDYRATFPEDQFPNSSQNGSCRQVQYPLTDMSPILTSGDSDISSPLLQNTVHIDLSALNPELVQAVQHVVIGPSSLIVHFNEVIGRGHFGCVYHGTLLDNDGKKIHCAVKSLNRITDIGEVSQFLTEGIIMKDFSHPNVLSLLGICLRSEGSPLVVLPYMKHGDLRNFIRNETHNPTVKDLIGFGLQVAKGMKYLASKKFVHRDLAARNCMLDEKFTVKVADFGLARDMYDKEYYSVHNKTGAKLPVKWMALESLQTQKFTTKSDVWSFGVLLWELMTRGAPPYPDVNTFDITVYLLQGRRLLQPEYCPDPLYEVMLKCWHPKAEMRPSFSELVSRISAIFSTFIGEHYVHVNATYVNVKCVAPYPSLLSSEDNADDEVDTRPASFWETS
Chain of UniProt P04049 (whole entry, looked up): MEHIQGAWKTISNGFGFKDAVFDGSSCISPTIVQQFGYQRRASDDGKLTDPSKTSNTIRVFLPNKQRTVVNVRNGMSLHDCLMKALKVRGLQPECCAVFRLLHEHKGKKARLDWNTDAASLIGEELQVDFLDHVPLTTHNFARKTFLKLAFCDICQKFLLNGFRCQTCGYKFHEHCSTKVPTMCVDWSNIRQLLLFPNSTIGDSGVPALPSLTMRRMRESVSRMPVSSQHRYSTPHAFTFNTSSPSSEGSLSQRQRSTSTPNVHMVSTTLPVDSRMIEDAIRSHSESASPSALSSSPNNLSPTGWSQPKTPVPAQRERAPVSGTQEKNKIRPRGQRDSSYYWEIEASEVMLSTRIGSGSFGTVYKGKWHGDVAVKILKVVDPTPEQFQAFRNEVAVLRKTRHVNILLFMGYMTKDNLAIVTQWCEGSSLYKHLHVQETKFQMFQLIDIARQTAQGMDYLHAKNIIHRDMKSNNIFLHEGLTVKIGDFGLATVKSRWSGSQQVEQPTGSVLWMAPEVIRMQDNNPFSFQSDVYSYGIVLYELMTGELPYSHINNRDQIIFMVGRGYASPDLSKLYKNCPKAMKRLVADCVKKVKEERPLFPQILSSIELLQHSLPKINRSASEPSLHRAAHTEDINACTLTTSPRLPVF

Sample 1
Structure (SMILES): CC(C)n1cnc(-c2ccc(F)cc2)c1-c1ncc(C(=O)Nc2ccc(N3CCN(C)CC3)cc2)[nH]1
Species: idiopathic pulmonary fibrosis patients
Medium: plasma
setting | AUC(0-t)
oral, 30 mg once daily, week 0, median | 527 ng·h/mL
oral, 60 mg once daily, week 0, arithmetic mean | 1630 ng·h/mL
oral, 60 mg once daily, week 12, arithmetic mean | 3450 ng·h/mL
oral, 60 mg once daily, week 0, median | 1260 ng·h/mL
oral, 30 mg once daily, week 12, arithmetic mean | 788 ng·h/mL
30 mg twice daily, week 12, median | 1090 ng·h/mL

Sample 2
SMILES: Cn1nc(C(F)(F)F)cc1-c1cnc(N2CCc3cc(S(=O)(=O)Nc4c(F)cc(Cl)cc4F)cc(N4CCCC4=O)c32)nc1
Read-out: cell-free assay
Method: competition with immobilised ligand
Concentration: 1 µM
target | remaining binding [%]
CIT (Homo sapiens, UniProt O14578) | 100
SRMS (Homo sapiens, UniProt Q9H3Y6) | 100
RAF1 (Homo sapiens, UniProt P04049) | 100
STK4 (Homo sapiens, UniProt Q13043) | 92
DYRK1A (Homo sapiens, UniProt Q13627) | 93
KIT (Homo sapiens, UniProt P10721, L576P) | 93
CAMK2A (Homo sapiens, UniProt Q9UQM7) | 75
PKN1 (Homo sapiens, UniProt Q16512) | 100
MYLK (Homo sapiens, UniProt Q15746) | 100

Sample 3
Structure (SMILES): Cc1ccc(S(=O)(=O)/C=C/C#N)cc1
Read-out: enzyme activity
Action: inhibitor
Concentration: 0.5 µM
Relative to: control
target | remaining activity
CAMK4 (Homo sapiens, UniProt Q16566) | 96.4%
MAPK14 (Homo sapiens, UniProt Q16539) | 97.4%
PRKG2 (Homo sapiens, UniProt Q13237) | 102%
MAPK1 (Homo sapiens, UniProt P28482) | 100%
ROCK1 (Homo sapiens, UniProt Q13464) | 93.2%
MAP2K1 (Homo sapiens, UniProt Q02750) | 93.9%
CDC42BPB (Homo sapiens, UniProt Q9Y5S2) | 96.4%
MARK2 (Homo sapiens, UniProt Q7KZI7) | 84%
KDR (Homo sapiens, UniProt P35968) | 94.7%
CLK3 (Homo sapiens, UniProt P49761) | 106%
AKT2 (Homo sapiens, UniProt P31751) | 94.9%
PLK3 (Homo sapiens, UniProt Q9H4B4) | 97.1%
MET (Homo sapiens, UniProt P08581) | 94.7%

Sample 4
Species: mouse
Medium: microsomes or S9
Concentration: 2 µM
Time: 0.5 h
Structure (SMILES) | remaining compound [%]
CCC(CN1CCN(C)CC1)NC(=O)Cc1csc(Nc2ccccc2F)n1 (stereo not shown) | 62
COC(=O)CC(c1c(O)cc(C)n(CCc2ccc(O)cc2)c1=O)c1cnn2cccnc12 (stereo not shown) | 9.35
Oc1ccc(C23CCCC2C2(CCCC2)c2ccc(O)cc2O3)c(O)c1 (stereo not shown) | 8.86
Nc1nc(N2CCOCC2)[nH]c(=O)c1Br | 96.8
Cc1ccc(CCCNC(=O)c2cc(C(C)(C)C)c(O)c(C(C)(C)C)c2)cc1C | 29.9
c1ccc(C(CNc2ncccn2)c2ccccc2)cc1 | 0.369
Oc1ccc(-c2oncc2-c2ccccc2)c(O)c1 | 23.6
Cc1cc(C)c(S(=O)(=O)NCCc2cc3c(C)ccc(C)c3[nH]c2=O)c(C)c1 | 74.9
CCOc1ccccc1-n1nnc(C(=O)O)c1-c1ccncc1 | > 99

Repeated from above (sample 3):
target | remaining activity
MET (Homo sapiens, UniProt P08581) | 94.7%
KDR (Homo sapiens, UniProt P35968) | 94.7%
MAP2K1 (Homo sapiens, UniProt Q02750) | 93.9%
MARK2 (Homo sapiens, UniProt Q7KZI7) | 84%
MAPK1 (Homo sapiens, UniProt P28482) | 100%
